{"data": "Experimental data of several laboratories", "note": "Lines come from different studies, so protocols differ.", "UniProt Q96SW2, sequence (whole entry, looked up)": "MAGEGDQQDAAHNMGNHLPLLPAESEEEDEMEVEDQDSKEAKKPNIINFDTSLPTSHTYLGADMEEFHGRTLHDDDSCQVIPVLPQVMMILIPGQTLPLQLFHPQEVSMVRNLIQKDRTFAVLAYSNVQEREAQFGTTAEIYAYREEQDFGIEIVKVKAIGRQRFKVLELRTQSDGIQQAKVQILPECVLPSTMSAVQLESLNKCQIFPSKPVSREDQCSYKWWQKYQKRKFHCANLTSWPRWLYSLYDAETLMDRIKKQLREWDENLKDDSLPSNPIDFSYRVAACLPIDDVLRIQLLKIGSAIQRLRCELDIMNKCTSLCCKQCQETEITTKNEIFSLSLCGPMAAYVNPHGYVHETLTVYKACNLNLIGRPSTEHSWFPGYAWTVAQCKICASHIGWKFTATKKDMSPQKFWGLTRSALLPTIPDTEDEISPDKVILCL", "UniProt Q9UKS7, sequence (whole entry, looked up)": "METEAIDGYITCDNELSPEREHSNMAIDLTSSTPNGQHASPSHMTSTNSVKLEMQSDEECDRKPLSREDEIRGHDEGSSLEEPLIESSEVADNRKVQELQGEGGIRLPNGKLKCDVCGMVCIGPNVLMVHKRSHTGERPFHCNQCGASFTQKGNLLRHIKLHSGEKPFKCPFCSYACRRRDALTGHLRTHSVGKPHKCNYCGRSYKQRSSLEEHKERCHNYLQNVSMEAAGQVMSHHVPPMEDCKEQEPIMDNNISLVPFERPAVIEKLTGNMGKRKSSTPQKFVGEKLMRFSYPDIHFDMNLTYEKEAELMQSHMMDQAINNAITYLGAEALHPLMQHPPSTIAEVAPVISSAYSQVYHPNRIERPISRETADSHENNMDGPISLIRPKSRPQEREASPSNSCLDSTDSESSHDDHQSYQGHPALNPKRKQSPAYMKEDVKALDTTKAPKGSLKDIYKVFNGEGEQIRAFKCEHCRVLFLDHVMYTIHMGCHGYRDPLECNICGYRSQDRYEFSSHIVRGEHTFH"}
{"Structure (SMILES)": "N=C(N)NCCCCCCN1CCC23c4c5ccc(O)c4OC2c2nc4ccccc4cc2CC3(O)C1C5 (stereo not shown)", "assay": "modified Racine scale", "test system": "C57BL/6J mice, male", "setting": "intracerebroventricular, 100 nmol, 65 min", "scale": "direction not given", "endpoint": "seizure score", "value": 0}
{"Structure (SMILES)": "C=CCN1C(=O)C(O)(C(=O)O)Oc2cc(F)ccc21 (stereo not shown)", "target or system": "Arabidopsis thaliana", "assay": "hypocotyl length", "test system": "Col-0", "setting": "3.125 µg/mL, 7 days, seed germination, dark", "endpoint": "inhibition", "value": "0.4%"}
{"Structure (SMILES)": "COc1cc(C(=O)OCCCN2CCCN(CCCOC(=O)c3cc(OC)c(OC)c(OCc4ccc([N+](=O)[O-])cc4)c3)CC2)cc(OC)c1OC", "test system": "CD-1 mice, male, brain", "setting": "subcutaneous, 30 mg/kg, 8 h", "endpoint": "concentration", "value": "73.3 ng/mL"}
{"Structure (SMILES)": "Cn1cc(-c2cccc(CN3CCC4(CC3)COc3c4ccc4c3CN(C3CCC(=O)NC3=O)C4=O)c2)cn1 (stereo not shown)", "target or system": "CRBN/Zinc finger protein Helios (Homo sapiens, UniProt Q96SW2+Q9UKS7)", "assay": "degrader, HiBiT", "test system": "HEK293", "setting": "333.3 nM", "endpoint": "protein remaining", "value": "10.9%"}
{"note": "For quick reference, copied from above:"}
{"Structure (SMILES)": "C=CCN1C(=O)C(O)(C(=O)O)Oc2cc(F)ccc21 (stereo not shown)", "target or system": "Arabidopsis thaliana", "assay": "hypocotyl length", "test system": "Col-0", "setting": "3.125 µg/mL, 7 days, seed germination, dark", "endpoint": "inhibition", "value": "0.4%"}
